Measurements of several laboratories.
Protocols differ between the studies behind these lines. Several values in a cell are separate wells, animals, samples, runs or records. ± gives the spread as reported.
Ubiquitin carboxyl-terminal hydrolase 39 ZnF-UBD domain: Ubiquitin carboxyl-terminal hydrolase 39, ZnF-UBD domain (Homo sapiens, UniProt Q53GS9)
UniProt Q53GS9, sequence (whole entry, looked up): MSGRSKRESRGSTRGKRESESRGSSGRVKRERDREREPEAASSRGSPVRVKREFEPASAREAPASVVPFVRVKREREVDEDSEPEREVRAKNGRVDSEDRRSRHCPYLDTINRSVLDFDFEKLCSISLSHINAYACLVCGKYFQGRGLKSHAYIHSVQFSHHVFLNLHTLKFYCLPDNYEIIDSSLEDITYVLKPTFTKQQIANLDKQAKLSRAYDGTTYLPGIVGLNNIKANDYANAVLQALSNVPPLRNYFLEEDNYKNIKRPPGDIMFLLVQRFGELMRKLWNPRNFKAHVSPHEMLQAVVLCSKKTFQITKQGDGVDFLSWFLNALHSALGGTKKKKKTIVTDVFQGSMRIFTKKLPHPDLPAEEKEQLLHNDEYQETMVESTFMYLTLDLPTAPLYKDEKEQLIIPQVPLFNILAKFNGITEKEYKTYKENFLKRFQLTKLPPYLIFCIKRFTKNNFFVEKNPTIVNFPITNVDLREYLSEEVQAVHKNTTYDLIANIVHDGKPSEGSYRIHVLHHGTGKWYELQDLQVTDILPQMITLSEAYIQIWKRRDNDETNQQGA

CCN1CCN(Cc2ccc(Nc3ncc(F)c(-c4cc(F)c5nc6n(c5c4)[C@H](C)CCC6)n3)nc2)CC1  objective response rate (human advanced solid tumours; 50 mg, phase Ia monotherapy RECIST 1.1): 0%
COc1ccc2[nH]cc(CC(=O)O)c2c1  z-scored log2 fold change (binding, equilibrium dialysis LC-MS; 5 µM, thermostabilized A2AR-BRIL construct; reference: no-protein control, direction not given): 0.0923
COC(=O)CCc1ccc(OCC(O)CNC(C)C)cc1 (centres unmarked)  diastolic blood pressure change (healthy male humans; dose not given, 5 min, with: saline; reference: baseline): -1.3 mm Hg
C=CCn1c(=O)c2cnc(Nc3ccc(N4CCN(C)CC4)cc3)nc2n1-c1ccc2c(n1)[C@@](O)(CC)CC2  tumour growth inhibition (SK-MES-1 xenograft, BALB/c nude mice; oral, 80 mg/kg once daily x 22, day 21; reference: vehicle): 37.5%
CN(C)C(=O)Oc1cccc([N+](C)(C)C)c1  train-of-four ratio (neuromuscular block reversal; rat; dose not given, 8.5 (unit not given), with: cisatracurium; reference: T1 twitch): 65.6
OC(CCN1CCCCC1)(c1ccccc1)C1CC2C=CC1C2 (centres unmarked)  power, EEG, Alpha, O2-Pz (resting-state EEG; healthy elderly humans; oral, 2 mg, eyes closed, LS mean): 20.3 µV²
O=C(O)CNC(=O)c1ccc(S(=O)(=O)N2CCC(n3c(=O)oc4ccccc43)CC2)cc1  Kd (Ubiquitin carboxyl-terminal hydrolase 39 ZnF-UBD domain): > 1000 µM
O=C(O)Cc1ccc(O)cc1  z-scored log2 fold change (binding, equilibrium dialysis LC-MS; 5 µM, thermostabilized A2AR-BRIL construct; reference: no-protein control, direction not given): -0.184
N#Cc1ccn2c(-c3ccncc3)c(-c3ccc(F)cc3)nc2c1  log2 fold change (kinase binding, competitor, MIB/MS competition, refers to: HRK1; Candida albicans cell lysate; 10 µM; reference: DMSO): -0.35
O=C(O)CNC(=O)Cc1ccccc1  sarcomere length (ventricular cardiomyocytes, C57BL/6 mouse; dose not given, 0.484 s): 1.66 µm
CC1(C)CCC(CN2CCN(c3ccc(C(=O)NS(=O)(=O)c4ccc(NCC5CCOCC5)c([N+](=O)[O-])c4)c(Oc4cnc5[nH]ccc5c4)c3)CC2)=C(c2ccc(Cl)cc2)C1  EC50 (cell killing; canine lymph node CD3+ T cells, dog 33; 24 h): 0.0167 µM
CC(C)C[C@H](N)C(=O)O  z-scored log2 fold change (binding, equilibrium dialysis LC-MS; 5 µM, thermostabilized A2AR-BRIL construct; reference: no-protein control, direction not given): 0.152
CN(C)C(=O)Nc1cccc(-c2ccc(N(C)C)cc2)c1  eWAT weight (mouse high-fat diet; dose not given; reference: body weight): 5.39% and 4.23% and 3.85% and 3.46% and 4.81% and 5.46%
COc1ccccc1[C@H](Cn1c(=O)n(C(C)(C)C(=O)O)c(=O)c2c(C)c(-c3ncco3)sc21)OC1CCOCC1  blood HDL level (human; 200 mg, post-treatment): 43.6 ± 9.91 mg/dL
Cc1ccc([C@@H]2O[C@H](CO)[C@@H](O)[C@H](O)[C@H]2O)cc1Cc1ccc(-c2ccc(F)cc2)s1  change in fasting serum insulin (Japanese type 2 diabetes patients; 25 mg, day 17; reference: day 1): 0.8 µU/mL
Cn1cc(Nc2nccc(-c3ccc4c(c3)CN(C3COC3)CC[C@H]4NC(=O)c3cn(C(C)(C)C)nn3)n2)cn1  pathway activation z-score (refers to: Estrogen Receptor Signaling; splenic B cells, mouse; in vivo, 30 mg/kg, IgD-activated B cells; reference: vehicle, positive = activation): 3
[2H][C@]1(Cc2ccc(OCCc3ccc(CC)cn3)cc2)SC(=O)NC1=O  hepatic steatosis (histopathology; C57BL/6J mouse, choline-deficient diet; dose not given): decreased
O=C(O)c1ccc(O)cc1  radical scavenging (DPPH radical; 300 µg/mL): 12.6 ± 1.38%
Cn1cc([C@H]2C[C@H]3CSC(N)=N[C@@]3(c3ccc(F)cc3F)CO2)cn1  Aβ40 level (refers to: Aβx-40; Mus musculus wild-type, cerebrospinal fluid; subcutaneous, 3 mg/kg, 1 h): 1.59 ng/mL
C[C@H]1C[C@H]2CSC(N)=N[C@@]2(c2nc(NC(=O)c3ccc(OC(F)F)cn3)cs2)CO1  percent change from baseline (refers to: total Aβ; healthy adults, plasma; 275 mg once daily, day 4; reference: placebo): -65.8%
Oc1ccc(Br)cc1C=NCCN1CCOCC1  inhibition (hydroxyl radical scavenging; 160 µM): 35.7%
O=C(CO)[C@@H](O)[C@H](O)COP(=O)(O)O  z-scored log2 fold change (binding, equilibrium dialysis LC-MS; 5 µM, thermostabilized A2AR-BRIL construct; reference: no-protein control, direction not given): 0.268
N#Cc1ccc2c(c1)[C@H]1CCCN(C(=O)c3ccc4[nH]cnc4c3)[C@H]1C2  diastolic blood pressure change (human clinical trial; oral, 240 mg once daily, 28 d): -0.8 mmHg
COc1cc(O)c(CC=C(C)C)c(O)c1C(=O)/C=C/c1ccc(O)cc1  hepatic total cholesterol (male Tac:SW mice, conventional and germ-free; in high-fat diet, dose not given; reference: high-fat diet alone): no effect
Cc1n[nH]c2ccc(-c3cc(OC[C@@H](N)Cc4ccccc4)cnc3-c3ccoc3)cc12  log2 fold change (kinase binding, competitor, MIB/MS competition, refers to: NPR1; Candida albicans cell lysate; 100 nM; reference: DMSO): 0.0428
OCC(O)CO  plasma FGF21 level (ELISA; male Slc25a13 knockout mice, serum; oral in drinking water, 5 % w/v, 2 days): 367 pg/mL and 1380 pg/mL and 595 pg/mL and 1280 pg/mL and 295 pg/mL
C[C@H](Oc1ccc(Br)cc1-c1ccon1)C(=O)O  difference from placebo (muscle velocity recovery cycle; human, tibialis anterior muscle; 400 mg once daily, last response peak at 30 Hz, multiple ascending dose): 8.97%
N=C(N)NCCC[C@H](NC(=O)[C@H](CCCNC(=N)N)NC(=O)[C@H](CCCCN)NC(=O)[C@H](CCC(N)=O)NC(=O)[C@H](CCCCN)NC(=O)[C@H](Cc1ccc(O)cc1)NC(=O)[C@@H](N)CCCCN)C(=O)N[C@@H](CO)C(=O)N[C@@H](Cc1ccc(O)cc1)C(=O)N[C@@H](CCCCN)C(=O)O  median cold water VAS change (dentin hypersensitivity patients; 10 µg/tooth single, day 22; reference: baseline): -29 mm
COc1cc2cc(-c3ccc(CC(=O)Nc4cc(C(C)(C)C(F)(F)F)no4)cn3)cnc2cc1OC  objective response rate (human RET fusion-positive NSCLC; 75 mg, phase I, RECIST 1.1): 42%
O=CNCc1ccc(O)cc1  radical scavenging (DPPH radical; 300 µg/mL): 10.4 ± 1.78%
O=C(O)CCC(=O)c1ccc2c(c1)CCC(=O)N2  Kd (Ubiquitin carboxyl-terminal hydrolase 39 ZnF-UBD domain): > 1000 µM
CC(C)NCC(O)c1ccc(O)c(O)c1 (centres unmarked)  sarcomere length (ventricular cardiomyocytes, C57BL/6 mouse; dose not given, 0.332 s): 1.72 µm
O=C(O)[C@@H]1C[C@@H](O)CN1  z-scored log2 fold change (binding, equilibrium dialysis LC-MS; 5 µM, thermostabilized A2AR-BRIL construct; reference: no-protein control, direction not given): 0.167
N#Cc1ccc2c(-c3ccncc3)c(-c3ccc(F)cc3)nn2c1  log2 fold change (kinase binding, competitor, MIB/MS competition, refers to: HST7; Candida albicans cell lysate; 1 µM; reference: DMSO): -0.161
NC(=O)c1cnc2[nH]ccc2c1N[C@@H]1[C@@H]2CC3C[C@H]1C[C@@](O)(C3)C2  CD8+ naive T-cell change (flow cytometry; Japanese healthy men, blood; oral, 100 mg twice daily, 72 h after day 7 dose; reference: baseline): -4.07%
CC(C)(CO)[C@@H](O)C(=O)NCCC(=O)O  z-scored log2 fold change (binding, equilibrium dialysis LC-MS; 5 µM, thermostabilized A2AR-BRIL construct; reference: no-protein control, direction not given): 0.169
O=C1O[C@H]([C@@H](O)CO)C(O)=C1O  radical scavenging (ABTS radical; 300 µg/mL): 98.86 ± 0.15%
CC(C)C[C@H](NC(=O)[C@H](CC(C)C)NC(=O)[C@H](Cc1c[nH]c2ccccc12)NC(=O)[C@H](CCC(=O)O)NC(=O)[C@@H](NC(=O)[C@H](Cc1ccccc1)NC(=O)[C@H](CCC(=O)O)NC(=O)[C@H](CCCCNC(=O)COCCOCCNC(=O)COCCOCCNC(=O)CC[C@H](NC(=O)CCCCCCCCCCCCCCCCCCC(=O)O)C(=O)O)NC(=O)[C@H](C)NC(=O)[C@H](CCCCN)NC(=O)[C@H](CCCCN)NC(=O)[C@H](CCC(=O)O)NC(=O)[C@H](CC(=O)O)NC(=O)[C@H](CC(C)C)NC(=O)[C@H](Cc1ccc(O)cc1)NC(=O)[C@H](CCCCN)NC(=O)[C@H](CO)NC(=O)[C@H](Cc1ccc(O)cc1)NC(=O)[C@H](CC(=O)O)NC(=O)[C@H](CO)NC(=O)[C@@H](NC(=O)[C@H](Cc1ccccc1)NC(=O)[C@@H](NC(=O)CNC(=O)[C@H](CCC(N)=O)NC(=O)C(C)(C)NC(=O)[C@@H](N)Cc1c[nH]cn1)[C@@H](C)O)[C@@H](C)O)C(C)C)C(=O)N[C@@H](CCC(=O)O)C(=O)NCC(=O)NCC(=O)N1CCC[C@H]1C(=O)N[C@@H](CO)C(=O)N[C@@H](CO)C(=O)NCC(N)=O  change from baseline (refers to: glucagon; human, fasting plasma; day 134, LS mean; reference: baseline): -14.1 pmol/L
O=C(O)/C=C\C(=O)O  z-scored log2 fold change (binding, equilibrium dialysis LC-MS; 5 µM, thermostabilized A2AR-BRIL construct; reference: no-protein control, direction not given): 0.157
CO[C@H]1CC[C@H](N2C(=O)CNc3ncc(-c4ccc(C(C)(C)O)nc4)nc32)CC1  pS6RP change from baseline (flow cytometry; stimulated B cells, human, blood; 45 mg single dose, 5 h, mean; reference: baseline): -74.5%
Cc1noc(C)c1-c1cc(C(O)(c2ccccn2)c2ccccn2)c2nc(C3CC3)[nH]c2c1  maximum induction (refers to: HEXIM1 expression; human, peripheral blood; 2 mg, day 8, 1599 study): 46.5%
C[C@@H](O)CCOC(=O)C[C@@H](C)O  metabolite level (refers to: C10 acylcarnitine; human, plasma; 60 min, log2-transformed values): -2.84 ± 1.19 µmol/L
Nc1ccccc1C(=O)C[C@H](N)C(=O)O  z-scored log2 fold change (binding, equilibrium dialysis LC-MS; 5 µM, thermostabilized A2AR-BRIL construct; reference: no-protein control, direction not given): 0.17
NC1(C(=O)N[C@@H](CCO)c2ccc(Cl)cc2)CCN(c2nc[nH]c3nccc2-3)CC1  overall response rate (human mCRPC patients; dose not given, with: enzalutamide): 25%
FC(F)(F)Oc1cccc(-c2cnc3ccc(-c4ccncc4)nn23)c1  tumour bioluminescence (bioluminescence imaging; mouse, MDA-MB-231-Luc xenograft; 10 mg/kg, day 21): 6.63e+10 photons/s and 2.43e+10 photons/s and 9.05e+10 photons/s and 5.24e+10 photons/s and 6.26e+10 photons/s and 2.24e+10 photons/s
O=P(O)(O)C(Cl)(Cl)P(=O)(O)O  Iba1-positive area (immunostaining; mouse, sham-operated, hippocampal fissure; dose not given, day 7; reference: total area): 0.67%
c1ccc(-c2n[nH]cc2-c2ccnc3ccccc23)nc1  log2 fold change (kinase binding, competitor, MIB/MS competition, refers to: MKK2; Candida albicans cell lysate; 1 µM; reference: DMSO): 1.6
COc1ccc(-c2cncc(N[C@@H](C)c3cccc(NC(=O)c4cncc(C)c4)c3)n2)cc1OC  fold change (refers to: rno-miR-874-3p; rat SU5416/hypoxia model, lung; dose not given; reference: SU5416/hypoxia vehicle): 1.14
O=C1Nc2cc3[nH]nc(-c4ccncc4)c3cc2CN1Cc1ccccc1  stable disease, best response (RECIST v1.1; human, relapsed or refractory advanced solid tumours; intravenous, 6.4 mg/kg): 11%
O=C(c1ccc(OCCN2CCCCC2)cc1)c1c(-c2ccc(O)cc2)sc2cc(O)ccc12  writhing count (male ICR-CD1 mice; intracerebroventricular, 100 µg/animal, no acetic acid): 0

Some of these lines once more:
[2H][C@]1(Cc2ccc(OCCc3ccc(CC)cn3)cc2)SC(=O)NC1=O  hepatic steatosis (histopathology; C57BL/6J mouse, choline-deficient diet; dose not given): decreased
O=C(O)c1ccc(O)cc1  radical scavenging (DPPH radical; 300 µg/mL): 12.6 ± 1.38%
Cn1cc([C@H]2C[C@H]3CSC(N)=N[C@@]3(c3ccc(F)cc3F)CO2)cn1  Aβ40 level (refers to: Aβx-40; Mus musculus wild-type, cerebrospinal fluid; subcutaneous, 3 mg/kg, 1 h): 1.59 ng/mL
C[C@H]1C[C@H]2CSC(N)=N[C@@]2(c2nc(NC(=O)c3ccc(OC(F)F)cn3)cs2)CO1  percent change from baseline (refers to: total Aβ; healthy adults, plasma; 275 mg once daily, day 4; reference: placebo): -65.8%
